Published values pooled from the literature.
Parts stem from different laboratories: compare values within a part only. Substitutions count along the parent as printed.

Series 1
Target: Interferon regulatory factor 7, full length, phosphomimetic (IRF7, Homo sapiens, UniProt Q92985, residues 1-503, S471D/S472D/S475D/S476D/S477D/S483D/S484D/S487D)
Method: protein-binding microarray
Molecule type: double-stranded DNA, one strand shown
Medium: in vitro
Concentration: 2200 nM top
Setting: 60-bp whole probe
Together with: salmon DNA 0.4 mg/ml
Reference: random background probes
Reading: higher = stronger binding
Shared flanks, not repeated: GCCTAGCAC … GTCTTGATTCGCTTGACGCTGCTG
Construct (chain): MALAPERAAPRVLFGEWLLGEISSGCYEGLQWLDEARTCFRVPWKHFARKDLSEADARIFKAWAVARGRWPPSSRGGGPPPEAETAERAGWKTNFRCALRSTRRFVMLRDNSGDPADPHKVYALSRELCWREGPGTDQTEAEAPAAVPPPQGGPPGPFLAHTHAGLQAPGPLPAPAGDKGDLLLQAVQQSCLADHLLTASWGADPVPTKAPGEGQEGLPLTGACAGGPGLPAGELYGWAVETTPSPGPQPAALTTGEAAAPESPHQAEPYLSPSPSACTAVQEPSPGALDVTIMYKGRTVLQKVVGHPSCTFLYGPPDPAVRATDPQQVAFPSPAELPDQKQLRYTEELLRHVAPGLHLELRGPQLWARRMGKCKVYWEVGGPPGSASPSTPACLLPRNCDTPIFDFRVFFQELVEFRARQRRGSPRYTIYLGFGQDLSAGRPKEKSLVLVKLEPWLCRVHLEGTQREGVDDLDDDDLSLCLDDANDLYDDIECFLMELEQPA
| Sequence | fitted relative affinity [z-score] |
| --- | --- |
| GACGATATCAGTCTCGAGCCGTGCTAG | 0.106 |
| CACCCCGCCCCTCCTTGGCCGTGCTAG | -0.349 |
| GACGATTTCAGTTTCGATACGTGCTAG | 7.3 |
| GACGATATCAGACTGGATACGTGCTAG | -0.0089 |
| AGCAGAAAGTGAAATACCCTCGTGCTA | -0.42 |
| TTAGATTTCAGACTAGATTAGTGCTAG | -0.441 |
| CCAAGTCTTGTTTTACAATTGTGCTAG | 1.26 |
| TGTTTTTCATTTTTTTTCATGTGCTAG | 3.42 |
| TCAGGTTTTACTTTCTAACTGTGCTAG | 2.78 |
| GACGAACTGAGACTGGATACGTGCTAG | -0.0178 |
| GACGGACTGGGGACTGGGAACGTGCTA | -0.982 |
| TTAGGTTTCCTTATCCTCTAGTGCTAG | 2.39 |
| TGTGCATGTGTGTTTTCTGCGTGCTAG | 1.27 |
| TCATCACTTTCTTTAACACTGTGCTAG | 1.55 |
| CTTCACATATAATTTTGTCATGTGCTA | 0.955 |
| TCAACCCTCCCTCTGTAAGTGTGCTAG | 1.38 |
| CACTCTCTGGGCTGTGGGTTTGTGCTA | 0.268 |
| TCATTATTTTTTTTATTACTGTGCTAG | 0.94 |
| TCAGTTTTCCTTCATGTACTGTGCTAG | 3.75 |

Series 2
Target: Fragile X messenger ribonucleoprotein 1, C-terminal low-complexity region (Fmr1, Mus musculus, UniProt P35922)
Method: RNA Bind-n-Seq
Molecule type: RNA
Medium: in vitro
Concentration: 200 nM
Setting: whole 134-nt RNA, ends assumed
Together with: 150 mM LiCl
Reference: input library
Reading: higher = stronger binding
Library: 7-deaza-guanosine replaces G
Shared flanks, not repeated: GGGAGUUCUACAGUCCGACGAUC … UGGAAUUCUCGGGUGUCAAGG
| Sequence | log2 enrichment |
| --- | --- |
| AGGUCAUGGAUCAAAAAGAACAUAAAUUGAAUGGGAAGGUGAUUGAUCCUAAAAGGGCCAAAGCCAUGAAAACAAAAGAGCCGGUUAAAA | -0.551 |
| GCAGGAAGUAAAAACAAAUGGAAAUGCUUCGGAUAGUGGCAGGGGUGGGGAUUGCUAAGGAAAGGGUGGGAUGGGAGUGGGUAAAGAGUU | 1.67 |
| AAGUCCUGUGCUACACAUCGUAUGUACCGAAUCGGAAAGGAAAAAGGAAAAAAAGGAAAGUAUUAUGUUACGCCGUUCGGAUCUGCACUU | -0.937 |
| UGUGCUACACAUCGUAUGUACCGAAUCGGGGUUUUUUUGGGGUUUUUUUGGGUUUUUUUGGGGAAAGUAUUAUGUUACGCCGUUCGGAUC | 2.04 |
| UGGCCCUGGUGGCUUGCGGGGAGGAAGAGGUGGCCUCAUGGAUCGUGGUGGUCCCGGUGGAAUGUUCAGAGGUGGCCGUGGUGGAGACAG | 0.225 |
| GUCCUGUGCUACACAUCGUAUGUACCGAAUCGGGGUUUGGGGAAAAAGGGGUUUGGGGAAAGUAUUAUGUUACGCCGUUCGGAUCUGCAC | -1.14 |
| UCCUCAAGUCCUGUGCUACACAUCGUAUGUACCGAAUCGGAAAGGUGGUGGAAAGUAUUAUGUUACGCCGUUCGGAUCUGCACUUCCAGC | -0.432 |
| UGGCUGCAGGCGCACCCCGGCAGGAUUUUGCCUCCGCUGUCGCCCCCGCAGCACCGCUACUCGGAGGGCGAGCGGACCUCCCUGGAGAAG | -2.97 |

Series 3
Target: CCND2, cyclin fold, Cln2 fusion (human)
Method: yeast growth competition, sequencing
Medium: yeast
Setting: strong parent motif
Reference: not given
Reading: higher = stronger binding
Parent: PKN2 docking peptide (human); VSAVRKLDFSDTM; partner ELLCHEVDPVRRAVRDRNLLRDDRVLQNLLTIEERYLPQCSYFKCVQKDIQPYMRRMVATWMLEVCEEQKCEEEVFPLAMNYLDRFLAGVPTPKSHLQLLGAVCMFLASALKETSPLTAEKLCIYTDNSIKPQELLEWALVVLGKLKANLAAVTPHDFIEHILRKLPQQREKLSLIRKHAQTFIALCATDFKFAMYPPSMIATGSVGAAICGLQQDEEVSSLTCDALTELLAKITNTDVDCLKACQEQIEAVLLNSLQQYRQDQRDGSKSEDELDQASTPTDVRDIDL
| Substitution | normalised enrichment score |
| --- | --- |
| S10R | 2.73 |
| S10N | 3.36 |
| V4W | 0.147 |
| D11T | 2.92 |
| S10H | 2.48 |
| F9G | 0.348 |
| F9D | 0.0459 |
| D8I | 1.47 |
| D11C | 3.17 |
| S2V | 1.33 |

Series 4
Target: Histone acetyltransferase KAT6A, winged helix 2, GST fusion (KAT6A, Homo sapiens, UniProt Q92794, residues 85-181)
Method: protein binding microarray
Molecule type: double-stranded DNA, one strand shown
Medium: in vitro
Concentration: not given
Setting: 8-mer, flanks averaged, mean of 2 arrays, mostly near background
Reference: not given
Reading: higher = stronger binding
Target sequence (chain): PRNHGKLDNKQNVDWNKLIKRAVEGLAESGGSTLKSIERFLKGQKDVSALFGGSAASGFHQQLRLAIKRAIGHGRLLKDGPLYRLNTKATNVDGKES
| Sequence | E-score |
| --- | --- |
| AGTTAGAC | 0.0647 |
| ATGTCGGA | 0.0137 |
| CTTCACGC | 0.0906 |
| CTAGGAAC | -0.272 |
| ACCCATGC | 0.0244 |
| CCCCCGCC | 0.0917 |
| ACCCCGTC | 0.015 |
| CCGATATC | 0.126 |
| GCTAAAAC | -0.138 |
| CCGCTGGA | 0.209 |
| ATTCCATC | 0.0827 |
| GACGGACA | 0.0576 |
| CGCTCACG | 0.145 |
| ATCGGAAA | -0.0475 |
| CCTTGATC | 0.159 |
| CAGGCAAC | 0.104 |

Series 5
Target: RING finger protein unkempt homolog, zinc fingers 1-6, GST-SBP tag (UNK, Homo sapiens, UniProt Q9C0B0, residues 30-357)
UniProt Q9C0B0, sequence (30-357, looked up): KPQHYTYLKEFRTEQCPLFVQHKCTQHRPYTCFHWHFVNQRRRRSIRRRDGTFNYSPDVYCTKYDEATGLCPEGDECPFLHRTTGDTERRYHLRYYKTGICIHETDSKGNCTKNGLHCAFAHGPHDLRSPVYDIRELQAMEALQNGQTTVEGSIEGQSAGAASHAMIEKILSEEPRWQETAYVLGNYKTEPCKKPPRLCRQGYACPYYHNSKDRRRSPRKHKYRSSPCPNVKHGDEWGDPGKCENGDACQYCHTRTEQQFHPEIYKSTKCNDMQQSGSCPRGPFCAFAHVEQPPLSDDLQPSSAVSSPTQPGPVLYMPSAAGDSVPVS
Method: RNA Bind-n-Seq
Molecule type: RNA
Medium: in vitro
Concentration: not given
Setting: RNA with constant flanks, human and mouse sites, ends assumed
Reference: input RNA pool
Reading: higher = stronger binding
Shared flanks, not repeated: GGGAGUUCUACAGUCCGACGAUC … CAACAGAGGAUUGAGCAUCA
| Sequence | bound/input enrichment |
| --- | --- |
| GACUACCAGGCUGCGGGCGAUGAUGAGAUCUCAUUUGACCCUGAUGACAUCAUCACCAACAUCGAGAUGAUUGACGACGGCUGGUGGCGCGGGGUGUGCAAGGGCCGGUACGGGCUCUUC | 0.181 ratio |
| ACAUUUUUAUGGUCUCCUAUGCCUGAACAUUAUGUGGAAGGAUCAACAGUCAAUUGUGUACUAGCAUUUCAAGGAUAUUACCUUCCAAAUGAUGAUGGAGAAUUUUAUCAGUUCUGUUAC | 0.154 ratio |
| GAGAUGAAGAAGAAGAUUAACAUGGAGUUGAAGAACAGAGCCCCGGAGGAGGUGACAGAGUUAGUCCUCGAUAAUUGCUUGUGUGUCAAUGGGGAAAUCGAAGGCCUGAAUGACACCUUU | 0.212 ratio |
| CACUGUUUAAUCUCUUCAGUGAAAUAAAUAGUCCUGGUGACAGGCAAUCUAUUGGUUUAGAGGAAAGGUCCUUAAGAAGUGUUGGAAACUAACUUUGGAUCUGUUCUUAGCUGUUGUUUU | 0.306 ratio |
| UCUCUCAUUAAACCAACCAGUAAAAGCGUAUCCUAUUUUUUUGCACAAGGUGUUUCAUUUUCGUUUUUAUGGGAAACCAAGGGAAAAGCACAUUGCGAUCCAUUCAGUGUUUAACUGUCG | 0.369 ratio |
| UCUUUCCAGUAGUAGCCAGGAAAGGUUAUCUGGGUUAGGGUUUUUGUUGUUUGUAUUUAGUAGGUUUUUGUUUUGUUUUGUUUUGUUUAACCUCUGUGCUGUUUACAUAAACAAAUUGCU | 63.1 ratio |
| GGCACUGACCUGCCAUGCCUCGCCUGGAGGCUCAGCUGUGGGCAUCCCUCCAUGGGGUUCAUAGAAAUAAGUGCAAUUUCUACACCCCCGAAACAAUUCAAAGGGAAGCAGCAUUUCUUG | 0.143 ratio |

For quick reference, copied from above (series 3):
| Substitution | normalised enrichment score |
| --- | --- |
| D11T | 2.92 |
| S10R | 2.73 |
| V4W | 0.147 |
| D11C | 3.17 |
| F9D | 0.0459 |
| S10N | 3.36 |
| S10H | 2.48 |
| F9G | 0.348 |
